Assay results of several laboratories.
Numbered parts are unrelated; each lists some results of a single study.

Sample 1
Target: Hepatocyte nuclear factor 3-alpha (Foxa1, Mus musculus, UniProt P35582, residues 1-468, full length assumed)
Method: EMSA with sequencing
Form: double-stranded DNA, one strand shown
Sample: in vitro
Concentration: 10 and 20 nM
Setting: whole designed probe, mean of two concentrations, ends assumed
Baseline: negative control set to 0
Reading: higher = stronger binding
Construct (chain): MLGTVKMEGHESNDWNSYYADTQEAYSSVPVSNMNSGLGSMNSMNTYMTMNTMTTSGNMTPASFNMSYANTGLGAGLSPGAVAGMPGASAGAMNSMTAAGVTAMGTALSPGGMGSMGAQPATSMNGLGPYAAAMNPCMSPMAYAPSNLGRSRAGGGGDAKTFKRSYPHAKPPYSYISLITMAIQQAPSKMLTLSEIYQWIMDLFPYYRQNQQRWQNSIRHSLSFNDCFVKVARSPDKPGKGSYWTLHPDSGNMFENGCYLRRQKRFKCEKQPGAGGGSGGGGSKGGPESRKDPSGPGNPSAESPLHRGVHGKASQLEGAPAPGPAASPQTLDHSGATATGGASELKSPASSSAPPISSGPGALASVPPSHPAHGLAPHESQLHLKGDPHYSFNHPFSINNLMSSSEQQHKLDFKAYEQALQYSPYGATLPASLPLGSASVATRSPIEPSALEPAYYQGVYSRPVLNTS
Sequence | normalised bound fraction [ratio]
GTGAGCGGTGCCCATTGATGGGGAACCAGTCACAGATTTGCATACAATACAATTATGTATTGGCTATTTACAATTTACAGTAGTGGTTCTTCCTCTGAGAAATATAAGTACAAAAGCTAAGTAATCTATGAGGTACTGCCATTTGGGATTTATTATGTGTCATAGCTTAAAGAACTGGCCTTTAGCAAATATTAAACAAATCAACCTGAATAAAATAGTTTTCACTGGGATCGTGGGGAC | 0.278
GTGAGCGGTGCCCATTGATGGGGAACCACTAGCCAAGCAAATGCTACCTTTCCTAAATTACGCCGTGGTATTGTGTACGACAGCAGCAGGGTTGCTATTTTAAAATGGGATTGCGTAAAATAAACATGTGCCCAGATGACACGTAGTACTAAGTTGATGATTAATTGATGCTCTGGTACGGCCTCGTGCTTTCCAGTGCTTCCATTTGTGTGACGATCCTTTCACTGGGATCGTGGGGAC | 0.241
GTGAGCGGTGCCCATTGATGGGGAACAGGCACAAGGTATGAATCACTAAGAATCTAGCAGCAGCTCTAGAAGCCTCCAAAGATAATTGCACTGGGGGTGGAGTTCCCCAACAGGGGGACGTAAATATGAAAGAACAGTGGATGGCCTAAATCAGTATGTGTCACTCTTTGTAAAGAGCCACAAGTGTTTGACTAGGGAAAAAGGAAAAGAGGCGAGAGTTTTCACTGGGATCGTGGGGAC | 0.0334
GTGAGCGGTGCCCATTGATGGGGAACTTAACTGATTGGAACAGTTACTTGGAAACATTAAATTGGTGGCAGAAAAAGTGAAACAATTATAAATGCAATGATCAAAAACAGAAAATAAAAAGTAAACATGAATTTAAGACAATGATCTAATCAAGAAGCAATGAATTCCTGAGTGAATGAGTATAGTGGGAAAAAACAGAGAGGAGTAAATATGGGAGCTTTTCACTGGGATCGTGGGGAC | 0.392
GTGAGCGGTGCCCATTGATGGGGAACGACCTTCATATCAGCTCTGAAGTGACTAGTAAATTGGATTACCCCACTGGGCATATTTATAGCAGTATTTAATTTTAACTACACAGAATGTACCTGTTTACTCAGACCTGATTTTAATATCAGAGTATCTGTGGAAGGCTTAATACAAATCCTTTTAAGAACTCTATTGACAGATAGAATTTTCCAGCAGAAATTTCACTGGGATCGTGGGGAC | 0.253
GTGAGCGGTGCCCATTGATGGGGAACATCCACGAACCTGGCCCTGTCTGGTAACCACAGTGAACCATCGCAAGATACAGCACTATGTGCCCAGTTGTAATGACTCACGGCTGGAAATGTGTCAACACTGGCACATCCTCAGGGACACGGAAGTGTACTTGTTTTTGGAGAGGGACTAGACCTTCATCCTTGAGGTGAAGAAGATTTTCTCTCCAGGGTGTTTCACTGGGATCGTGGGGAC | 0.0549
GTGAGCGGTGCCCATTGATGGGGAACTTGCAGGCTGCAGTGATGTCCTTCATATCACGTCATCTTAGTGCCACTTCATCTTTATTGGCATGTGTGGGAGGAACAAAACCCCAGTGGTATGCAATCTCCGTCATGGGGACTTGCTTCAAGCCATGGGAAGTTTCACGCAAAGCCAGTTTCTCAGTAGGGCAAATGTTGTGTAAAAGTACAAGAAGTTTGATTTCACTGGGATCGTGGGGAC | -0.0229
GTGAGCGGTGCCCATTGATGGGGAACCACAGATTGCGGCCGTTTTTCAAATATTTGAGGAGTTCTTAGGTGTAGTTGTTCTATTCATTTCCTACTTATGTCCCTTTATTTTATTGCAAAATAATCTCAGCTTGGCACTTGACATTTTCCCTGACCCATCTTTTAAACATACATTAGATGTGAGTCATAGGCAATGAACGGAACTCGCATTTTTGCCCACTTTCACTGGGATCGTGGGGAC | 0.0239

Sample 2
Target: Probable WRKY transcription factor 33, N-terminal DNA-binding domain (WRKY33, Arabidopsis thaliana, UniProt Q8S8P5, residues 169-264)
Method: DNA-protein interaction ELISA
Form: double-stranded DNA, one strand shown
Sample: in vitro, bacterial lysate
Concentration: not given
Setting: whole dsDNA probe, crude lysate protein
Baseline: highest signal in screen
Reading: higher = stronger binding
Residues (chain): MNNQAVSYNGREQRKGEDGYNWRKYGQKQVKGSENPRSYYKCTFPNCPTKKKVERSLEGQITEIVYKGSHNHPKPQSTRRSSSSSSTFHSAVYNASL
Sequence | relative absorbance
AAAAAACTGACCGTCAGCGCCCACGCAAAA | 35.1 % of maximum
AAAAAAGGAAGTACTGACGATCTGGAAAAA | 24.2 % of maximum
AAAAAAAACGTCTGGCGGGGTTGAGAAAAA | 20.5 % of maximum
AAAAAATTCGTTTTTCGTCTTTCATTAAAA | 28.4 % of maximum
AAAAAAGGGTCGCTGTGAGCTCATGAAAAA | 19.9 % of maximum
AAAAAAGTATAACGTGTTGTTGACCGAAAA | 82.1 % of maximum
AAAAAAACGGGTTGTGAATGTGGAAGAAAA | 19.4 % of maximum
AAAAAAGTCTCACCTTTAGTCTTAATAAAA | 61.3 % of maximum
AAAAAAACTTCTGTCCCTGTTCCCGTAAAA | 18.9 % of maximum
AAAAAATCCGTTCCCATTTGTCCGTCAAAA | 21.2 % of maximum
AAAAAAGCCCCTTGCGCCTCTCTACCAAAA | 22.6 % of maximum
AAAAAAGTCGTTACACGTATGCGTGCAAAA | 34.8 % of maximum
AAAAAACTACGTATATTCAGGCCCTAAAAA | 19.7 % of maximum

Sample 3
Molecule: PhoQ, residues 284 288 289 292 302 303 AAQSYM
Method: Sort-seq
Item: YFP reporter
Sample: E. coli
Setting: PhoQ-PhoP variant library
Together with: 10 µM Mg2+
Baseline: high Mg2+ state
Reading: higher = stronger signaling
target | fold induction
PhoP, residues 12 14 15 18 19 VGHWL (Escherichia coli, UniProt P23836) | 3.24
PhoP, residues 12 14 15 18 19 LHHYF (Escherichia coli, UniProt P23836) | 12
PhoP, residues 12 14 15 18 19 NFFVT (Escherichia coli, UniProt P23836) | 12.9
PhoP, residues 12 14 15 18 19 TPWTL (Escherichia coli, UniProt P23836) | 1.17

Sample 4
Target: Sal-like protein 4, full length isoform B (SALL4, Homo sapiens, UniProt Q9UJQ4-2, residues 1-616)
Method: universal PBM
Form: double-stranded DNA, one strand shown
Sample: in vitro
Concentration: not given
Setting: 8-mer, flanks averaged, mean of replicates
Reading: higher = stronger binding
Construct (chain): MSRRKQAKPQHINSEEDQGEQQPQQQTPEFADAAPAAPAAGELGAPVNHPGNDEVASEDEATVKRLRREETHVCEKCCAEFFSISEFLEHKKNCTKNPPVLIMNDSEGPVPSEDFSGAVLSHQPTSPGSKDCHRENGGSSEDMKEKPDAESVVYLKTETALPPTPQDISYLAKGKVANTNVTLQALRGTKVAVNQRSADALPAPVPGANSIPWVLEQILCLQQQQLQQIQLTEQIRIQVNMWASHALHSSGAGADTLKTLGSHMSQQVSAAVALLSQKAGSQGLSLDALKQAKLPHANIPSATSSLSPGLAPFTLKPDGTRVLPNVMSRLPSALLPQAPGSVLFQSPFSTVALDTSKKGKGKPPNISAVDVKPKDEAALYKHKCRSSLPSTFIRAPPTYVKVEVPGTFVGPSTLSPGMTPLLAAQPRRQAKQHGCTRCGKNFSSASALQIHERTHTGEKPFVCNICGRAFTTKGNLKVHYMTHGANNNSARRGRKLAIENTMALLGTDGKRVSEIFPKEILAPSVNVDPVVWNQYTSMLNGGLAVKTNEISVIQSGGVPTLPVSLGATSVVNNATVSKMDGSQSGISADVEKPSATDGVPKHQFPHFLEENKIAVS
Sequence | E-score
CAAACTGA | -0.0671
ACCGAGTG | -0.237
ACCACGGC | -0.178
AGAAGCTC | -0.102
CTTCGCAA | -0.0601
AGGTACCC | -0.307
CGTTAGCC | -0.0816
ACTACGAT | 0.09
GCTCCAAA | -0.177
CGAGCCGA | -0.287

Some of these lines once more (sample 1):
Sequence | normalised bound fraction [ratio]
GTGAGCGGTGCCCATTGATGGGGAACAGGCACAAGGTATGAATCACTAAGAATCTAGCAGCAGCTCTAGAAGCCTCCAAAGATAATTGCACTGGGGGTGGAGTTCCCCAACAGGGGGACGTAAATATGAAAGAACAGTGGATGGCCTAAATCAGTATGTGTCACTCTTTGTAAAGAGCCACAAGTGTTTGACTAGGGAAAAAGGAAAAGAGGCGAGAGTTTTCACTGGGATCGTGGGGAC | 0.0334
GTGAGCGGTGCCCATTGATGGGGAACTTAACTGATTGGAACAGTTACTTGGAAACATTAAATTGGTGGCAGAAAAAGTGAAACAATTATAAATGCAATGATCAAAAACAGAAAATAAAAAGTAAACATGAATTTAAGACAATGATCTAATCAAGAAGCAATGAATTCCTGAGTGAATGAGTATAGTGGGAAAAAACAGAGAGGAGTAAATATGGGAGCTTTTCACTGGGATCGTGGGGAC | 0.392
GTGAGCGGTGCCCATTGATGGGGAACGACCTTCATATCAGCTCTGAAGTGACTAGTAAATTGGATTACCCCACTGGGCATATTTATAGCAGTATTTAATTTTAACTACACAGAATGTACCTGTTTACTCAGACCTGATTTTAATATCAGAGTATCTGTGGAAGGCTTAATACAAATCCTTTTAAGAACTCTATTGACAGATAGAATTTTCCAGCAGAAATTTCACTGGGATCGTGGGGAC | 0.253
